Results from different studies.
Each numbered part is a random draw from the data of one study; scales do not carry over between parts. Positions count from the first letter of the parent shown.

Sample 1
Target: ABI1, truncated, D143A, DHFR fusion (Arabidopsis thaliana)
Technique: DHFR PCA, deep sequencing
Medium: yeast
Setting: methotrexate growth selection, single substitutions
Together with: (+)-ABA 0.0091 µM
Relative to: wild-type fitted maximum
Direction: higher = stronger binding
Starting sequence: PYL1, truncated, DHFR fusion (Arabidopsis thaliana); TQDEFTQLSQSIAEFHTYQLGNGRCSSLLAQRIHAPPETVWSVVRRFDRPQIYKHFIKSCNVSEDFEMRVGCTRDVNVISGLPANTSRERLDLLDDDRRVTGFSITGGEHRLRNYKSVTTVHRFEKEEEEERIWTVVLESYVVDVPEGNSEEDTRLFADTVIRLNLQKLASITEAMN; partner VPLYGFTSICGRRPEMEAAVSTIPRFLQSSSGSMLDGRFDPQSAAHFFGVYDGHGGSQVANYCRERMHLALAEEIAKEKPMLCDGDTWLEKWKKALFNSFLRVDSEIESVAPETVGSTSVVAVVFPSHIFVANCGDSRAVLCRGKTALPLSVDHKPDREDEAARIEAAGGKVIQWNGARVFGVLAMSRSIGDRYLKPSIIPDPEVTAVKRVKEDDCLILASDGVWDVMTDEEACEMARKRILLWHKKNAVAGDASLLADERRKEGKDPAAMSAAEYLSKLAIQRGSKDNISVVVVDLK
Change | relative binding score
L91D | 10%
D153G | 3.12%
L169W | -2.05%
A30Q | -4.04%
E147R | 3.26%
A84G | 46.1%
S117P | 0.523%
Q19T | 31.8%
Q10M | 7.15%
V145C | -0.448%
L164S | 4.28%
K116D | -2.09%

Sample 2
Target: Ras GTPase-activating protein-binding protein 1, full length (G3BP1, Homo sapiens, UniProt Q13283)
Sequence of UniProt Q13283 (whole entry, looked up): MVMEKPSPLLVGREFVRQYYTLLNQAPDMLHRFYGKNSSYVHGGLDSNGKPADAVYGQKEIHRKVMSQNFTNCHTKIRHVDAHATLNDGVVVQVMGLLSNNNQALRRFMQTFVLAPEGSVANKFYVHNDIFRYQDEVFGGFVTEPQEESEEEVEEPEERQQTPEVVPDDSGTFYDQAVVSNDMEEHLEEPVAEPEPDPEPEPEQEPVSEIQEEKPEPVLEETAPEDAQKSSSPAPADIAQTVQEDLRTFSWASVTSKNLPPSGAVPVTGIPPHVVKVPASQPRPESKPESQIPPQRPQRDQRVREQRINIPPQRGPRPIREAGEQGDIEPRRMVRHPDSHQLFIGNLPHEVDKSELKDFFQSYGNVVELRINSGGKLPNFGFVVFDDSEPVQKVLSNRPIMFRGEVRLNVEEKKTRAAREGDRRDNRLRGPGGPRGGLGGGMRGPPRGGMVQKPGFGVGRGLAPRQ
Technique: RNA Bind-n-Seq
Molecule type: RNA
Medium: in vitro
Concentration: 200 nM
Setting: whole 134-nt RNA, ends assumed
Together with: 150 mM LiCl
Relative to: input library
Direction: higher = stronger binding
Library: 7-deaza-guanosine replaces G
Constant ends, left off below: GGGAGUUCUACAGUCCGACGAUC … UGGAAUUCUCGGGUGUCAAGG
Oligonucleotide | log2 enrichment
UCAAGUCCUGUGCUACACAUCGUAUGUACCGAAUCGGGAAAGGGAGGGUUUGGGAAAGUAUUAUGUUACGCCGUUCGGAUCUGCACUUCC | -0.0331
UUUUAUUCUUCCAUCUUUUCCCACAGGUGGCAGCUGCCAACAAGAAGCAUUAGAACAAACCAUGCUGGGUUAAUAAAUUGCCUCAUUCGU | 1.49
AAGUCCUGUGCUACACAUCGUAUGUACCGAAUCGGGAGGGAAAAAGGGUUUUUGGGAAAGUAUUAUGUUACGCCGUUCGGAUCUGCACUU | -1.09
CAAGUCCUGUGCUACACAUCGUAUGUACCGAAUCGGGGUUUGGGGUUUGGUUUGGAAAGUAUUAUGUUACGCCGUUCGGAUCUGCACUUC | -0.305
UCUUCAGAGGCCCCACAGUAUCAAAUAUCCGCCUGGCUGGAUUAGAGUAUGUUCUGCACUUCACUGCACUGAAUGGGAAGAUUUACUUUC | 0.687
AGUCCUGUGCUACACAUCGUAUGUACCGAAUCGGGGUUUUUGGUUUUUGGUUUUUGGGAAAGUAUUAUGUUACGCCGUUCGGAUCUGCAC | -0.426

Sample 3
Target: Histone acetyltransferase KAT6A, both winged helices, GST fusion (KAT6A, Homo sapiens, UniProt Q92794, residues 1-181)
Technique: protein binding microarray
Molecule type: double-stranded DNA, one strand shown
Medium: in vitro
Concentration: not given
Setting: 8-mer, flanks averaged, mean of 2 arrays, mostly near background
Relative to: not given
Direction: higher = stronger binding
Construct (chain): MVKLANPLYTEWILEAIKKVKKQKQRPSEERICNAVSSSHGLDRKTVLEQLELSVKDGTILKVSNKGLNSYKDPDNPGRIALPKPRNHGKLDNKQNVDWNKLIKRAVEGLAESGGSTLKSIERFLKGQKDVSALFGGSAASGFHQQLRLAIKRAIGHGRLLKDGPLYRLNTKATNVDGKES
Oligonucleotide | E-score
GCATTGGA | 0.0701
CCGGGATC | 0.255
CCCTTTCA | -0.0211
AGGGCGGG | 0.237
CGGATGCC | 0.0682
CTGAGCCC | -0.115
GTCGGCTA | 0.193
AAGGGGAA | -0.195
CACGACCA | -0.218
CAAACATA | -0.137
ATCAGCAC | -0.209
GGGAGCCA | -0.0337
ACAGAGGG | -0.131
ACCGGGAA | 0.224
GGTCCGAA | 0.128

Sample 4
Target: Hepatocyte nuclear factor 3-beta, forkhead domain (FOXA2, Homo sapiens, UniProt Q9Y261, residues 142-269)
Technique: protein-binding microarray
Molecule type: double-stranded DNA, one strand shown
Medium: in vitro
Concentration: not given
Setting: k-mer, scored over probes, only values ≥0.25
Direction: higher = stronger binding
Target sequence (chain): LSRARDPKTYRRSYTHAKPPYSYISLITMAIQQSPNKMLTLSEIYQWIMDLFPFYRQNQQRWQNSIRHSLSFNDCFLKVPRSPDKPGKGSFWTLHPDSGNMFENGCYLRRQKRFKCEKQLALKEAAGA
Oligonucleotide | E-score
CATAACAA | 0.35
AATCGTAT | 0.29
TATTCAAA | 0.328
CAAACATC | 0.272
AGATATCA | 0.305
ATTCATAC | 0.264
CATATACA | 0.42
ATAGCAAT | 0.358
ATCATGTA | 0.256
GTAAAGAA | 0.266

Sample 5
Target: Interferon regulatory factor 5, full length, phosphomimetic (IRF5, Homo sapiens, UniProt Q13568-2, residues 1-514, K96S/S451D/S453D/S456D/S462D)
Technique: protein-binding microarray
Molecule type: double-stranded DNA, one strand shown
Medium: in vitro
Concentration: 250 nM
Setting: 60-bp whole probe
Together with: salmon DNA 0.4 mg/ml
Relative to: random background probes
Direction: higher = stronger binding
Constant ends, left off below: GCCTAGCAC … GTCTTGATTCGCTTGACGCTGCTG
Oligonucleotide | log fluorescence [z-score]
TTGGGACTGCTTTTCCTTTAGTGCTAG | -0.0406
TCGTAAGCAAAAATGATTGGGTGCTAG | 0.264
TTAGAACTGAGTTTCGACTAGTGCTAG | 7.14
GACGGACTGGACTTTCCGGACGTGCTA | -0.495
GACGGTTTCGGGTATCTGGACGTGCTA | 7.98
TTAGTTTTCCTTTCCCTTTAGTGCTAG | 3.15
TTAGATTTCGGGTTTCGGTTAGTGCTA | 8.96
TTTCTTTTCATTACTGCATTGTGCTAG | 6.23
TTAGATATCAGTCTCGAATAGTGCTAG | 1.52
TTACGTCTCCTACTGCTTTAGTGCTAG | 0.433
GACGTTTTTCATTTTTTTTTGTGCTAG | 1.38
GACGATATCAGGTATCGAGACGTGCTA | 1.83
GACCGTTTCCTTATCCTGACGTGCTAG | 0.753
GACGGTTTCCTTCTCCCGACGTGCTAG | 1.07
TTAAAACTGGGGACTGGATTAGTGCTA | -0.41
TTAGGACTGGAACTGGGTTAGTGCTAG | -0.604

Sample 6
Target: PABPC1L2, full length, GST fusion (mouse, UniProt A0ABA7IW68)
Technique: RNAcompete
Molecule type: RNA
Medium: in vitro
Concentration: 20 nM
Setting: 7-mer, probes averaged, single round
Relative to: mean of 7-mers
Direction: higher = stronger binding
Target sequence (chain): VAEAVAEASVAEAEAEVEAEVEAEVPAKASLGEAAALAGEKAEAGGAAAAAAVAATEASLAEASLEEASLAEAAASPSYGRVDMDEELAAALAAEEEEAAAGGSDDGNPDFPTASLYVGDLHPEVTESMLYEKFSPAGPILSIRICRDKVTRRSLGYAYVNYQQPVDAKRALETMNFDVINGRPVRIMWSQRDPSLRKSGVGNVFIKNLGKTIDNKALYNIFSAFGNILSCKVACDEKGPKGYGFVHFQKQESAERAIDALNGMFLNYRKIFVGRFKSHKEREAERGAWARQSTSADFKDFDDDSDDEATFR
Oligonucleotide | 7-mer Z-score
CAAUCAA | 0.254
GCCCUGA | -0.273
AUUGUAG | -0.184
GGACCUG | -0.126
UGUCAAC | -0.318
CUACACA | -0.0554
CGGGAGU | 0.00979
UGAGCAA | 0.0334
CAUCCUA | -0.278
UAGAAAG | 1.04

Sample 7
Target: Centromere-binding protein 1, full length, N-terminal tag (CBF1, Saccharomyces cerevisiae, UniProt P17106, residues 1-351)
Sequence of UniProt P17106 (whole entry, looked up): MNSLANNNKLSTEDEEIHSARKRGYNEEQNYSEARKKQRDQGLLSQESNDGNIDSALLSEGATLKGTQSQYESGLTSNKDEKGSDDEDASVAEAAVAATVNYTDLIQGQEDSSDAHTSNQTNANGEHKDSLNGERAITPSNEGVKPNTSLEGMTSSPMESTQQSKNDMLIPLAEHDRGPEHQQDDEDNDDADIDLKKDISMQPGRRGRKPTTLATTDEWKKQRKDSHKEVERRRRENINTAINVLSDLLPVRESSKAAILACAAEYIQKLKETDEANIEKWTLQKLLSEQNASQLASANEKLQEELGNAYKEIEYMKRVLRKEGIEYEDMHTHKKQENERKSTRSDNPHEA
Technique: protein-binding microarray
Molecule type: double-stranded DNA, one strand shown
Medium: in vitro
Concentration: 0.8 µM
Setting: whole 60-bp probe, no competitor
Direction: higher = stronger binding
Constant ends, left off below: … GTCTTGATTCGCTTGACGCTGCTG
Oligonucleotide | fluorescence intensity [a.u.]
CTAAAAAATATCGTCGACGTGTCATGTGATCAATTC | 10100
GAAACGTAATATGTACACATGATTTTTTTTCTTTAG | 1120
GAATTCTTACTAAATCACGTGACAAGAGGCGGATAG | 34500
CCTAACTACTATAGGTACACGTCATAGCTTCGTACA | 509
GAAGATCTGCTATTGCATGTGGTGAAAGTTATATAG | 566
CCTAACTACTATAGTCAGATGACATAGCTTCGTACA | 1450
GAATTTGAGACCCCGCGGGTGATATGGCCCCTGTAG | 481
TGTACGAAGCTATGGGGCATGACTATAGTAGTTAGG | 572
GAATTAATATTTCAGTGGGTGACGTTAGGTAATTAG | 551
CCTAACTACTATATAAACGTGGCATAGCTTCGTACA | 518
TGTACGAAGCTATGTAGAGTCACTATAGTAGTTAGG | 563
GAAACTTTTAGCTCAAACGTGGTAAAACTATCTTAG | 562
CTATTTTTAAAAGCGCACGTTTCTTTTTCTTTGTTC | 753
GAATATGGTTATTCTGATGTTACTGGTAGTCGTTAG | 486
GAATACGCACAAATGCACATGTATACATACGCATAG | 640
GAAACCGTATTATGCGACGTGCTTGCGATCCTTTAG | 542

Sample 8
Target: Sal-like protein 4, full length isoform A (SALL4, Homo sapiens, UniProt Q9UJQ4, residues 1-1053)
Sequence of UniProt Q9UJQ4 (whole entry, looked up): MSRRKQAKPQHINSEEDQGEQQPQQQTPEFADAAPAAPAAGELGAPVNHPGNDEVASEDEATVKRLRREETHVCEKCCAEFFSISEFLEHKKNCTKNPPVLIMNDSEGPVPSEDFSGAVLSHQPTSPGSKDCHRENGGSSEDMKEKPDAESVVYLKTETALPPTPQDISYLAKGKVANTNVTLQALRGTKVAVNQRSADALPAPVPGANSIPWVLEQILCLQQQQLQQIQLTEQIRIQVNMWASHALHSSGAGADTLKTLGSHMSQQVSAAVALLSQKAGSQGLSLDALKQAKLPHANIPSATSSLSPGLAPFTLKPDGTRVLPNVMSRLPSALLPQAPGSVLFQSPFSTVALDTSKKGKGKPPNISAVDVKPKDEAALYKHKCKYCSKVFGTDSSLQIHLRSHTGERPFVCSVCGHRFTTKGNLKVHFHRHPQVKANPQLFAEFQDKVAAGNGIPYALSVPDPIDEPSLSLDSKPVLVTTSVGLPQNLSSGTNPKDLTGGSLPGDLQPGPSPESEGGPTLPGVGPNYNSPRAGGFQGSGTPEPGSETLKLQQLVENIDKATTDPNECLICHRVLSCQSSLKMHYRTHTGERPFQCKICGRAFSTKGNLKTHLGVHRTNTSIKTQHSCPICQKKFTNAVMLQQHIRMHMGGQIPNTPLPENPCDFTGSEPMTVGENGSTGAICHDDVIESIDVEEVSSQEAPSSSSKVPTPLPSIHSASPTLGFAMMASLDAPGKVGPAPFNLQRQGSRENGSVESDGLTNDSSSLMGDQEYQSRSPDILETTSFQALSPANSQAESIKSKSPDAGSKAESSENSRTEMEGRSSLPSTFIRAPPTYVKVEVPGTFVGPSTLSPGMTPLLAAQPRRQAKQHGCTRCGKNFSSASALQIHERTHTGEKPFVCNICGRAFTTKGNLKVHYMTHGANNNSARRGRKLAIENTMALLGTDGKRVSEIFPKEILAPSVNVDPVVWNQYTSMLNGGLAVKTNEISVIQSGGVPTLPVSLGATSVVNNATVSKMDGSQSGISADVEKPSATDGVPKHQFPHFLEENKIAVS
Technique: universal PBM
Molecule type: double-stranded DNA, one strand shown
Medium: in vitro
Concentration: 600 nM
Setting: 8-mer, flanks averaged, mean of replicates
Direction: higher = stronger binding
Oligonucleotide | E-score
AATGTACT | 0.19
AATTCACC | 0.0624
CGTGGAGA | -0.0943
CTGCGCCA | -0.199
CAATCACG | 0.124
AAAAAGTG | 0.162
AGCGACGG | -0.286
AATCCTGT | 0.18
CACCGTTA | 0.0341
CGACTGCC | -0.337
AGCGTTGC | -0.235
ACGTTTCG | 0.0411
GTTTCGGA | 0.034
TAAAGAAA | 0.315
CATTTCGA | 0.101
ACACCGCG | -0.36
GGCTCGCA | -0.118
GCGAAGCC | -0.305
CTGCAGAC | -0.142
CCATTGCC | -0.116
ACTCTCAC | -0.0623
ATCCAAGG | -0.123
AAAAAGAC | 0.242
GTATACAA | 0.282
ATCGGGCC | -0.29

Repeated from above (sample 5):
Oligonucleotide | log fluorescence [z-score]
TTAGAACTGAGTTTCGACTAGTGCTAG | 7.14
GACCGTTTCCTTATCCTGACGTGCTAG | 0.753
TCGTAAGCAAAAATGATTGGGTGCTAG | 0.264
TTAGTTTTCCTTTCCCTTTAGTGCTAG | 3.15
GACGTTTTTCATTTTTTTTTGTGCTAG | 1.38
TTAGGACTGGAACTGGGTTAGTGCTAG | -0.604
GACGATATCAGGTATCGAGACGTGCTA | 1.83
TTAGATTTCGGGTTTCGGTTAGTGCTA | 8.96
TTTCTTTTCATTACTGCATTGTGCTAG | 6.23
GACGGTTTCGGGTATCTGGACGTGCTA | 7.98
GACGGTTTCCTTCTCCCGACGTGCTAG | 1.07
GACGGACTGGACTTTCCGGACGTGCTA | -0.495
TTGGGACTGCTTTTCCTTTAGTGCTAG | -0.0406
